Measurements of several laboratories.
A part holds a random share of what one study measured. Several values in a cell are separate wells, animals, samples, runs or records.

Study 1 — organism: Avena fatua; observed: fresh weight; dose: 150 g ai/ha; notes: pre-emergence treatment
SMILES | inhibition
CN1C(=O)C(O)(C(=O)O)Oc2cc(F)ccc21 (stereo not shown) | 100%
CCCN1C(=O)C(O)(C(=O)O)Oc2cc(F)ccc21 (stereo not shown) | 51.4% and 54.6% and 50.3%
Cc1ccc2c(c1)OC(O)(C(=O)O)C(=O)N2Cc1ccccc1 (stereo not shown) | 40.9% and 41.2% and 38.8%
O=C(O)C1(O)Oc2cc(Br)ccc2N(Cc2ccccc2)C1=O (stereo not shown) | 100%
CCN1C(=O)C(O)(C(=O)O)Oc2cc(F)ccc21 (stereo not shown) | 100%
O=C(O)C1(O)Oc2cc(Cl)ccc2N(Cc2ccccc2)C1=O (stereo not shown) | 83.6% and 80.7% and 80.2%

Study 2
Structure (SMILES): Cc1ncsc1-c1ccc(C(CO)NC(=O)C2CC(O)CN2C(=O)C(C(C)C)n2cc(-c3ccc(COc4c(-c5c(C)c(F)cc6[nH]ncc56)c(C5CC5)cc5c(N6CC7CC6CN7)nc(OC6CCOCC6)nc45)cc3)nn2)cc1 (stereo not shown)
cells | host | route | dose | time | tumour volume
GP2d xenograft | mouse |  | 30 mg/kg twice weekly | day 4 | 193 mm3 and 202 mm3 and 223 mm3 and 155 mm3 and 206 mm3
GP2d xenograft | mouse |  | 30 mg/kg twice weekly | day 14 | 99.5 mm3 and 184 mm3 and 164 mm3 and 171 mm3 and 133 mm3
 | mouse, PK-59 xenograft | subcutaneous | 30 mg/kg once daily | day 20 | 38.6 mm3 and 38.1 mm3 and 29.1 mm3 and 39.4 mm3 and 43.4 mm3
 | mouse, lung LXFA sample A PDX |  | 10 mg/kg twice weekly | day 9 | 177 mm3 and 127 mm3 and 348 mm3 and 84.9 mm3 and 245 mm3 and 69.8 mm3 and 64.2 mm3 and 131 mm3
 | mouse, PK-59 xenograft |  | 3 mg/kg | day 0 | 231 mm3 and 274 mm3 and 311 mm3 and 310 mm3 and 322 mm3
 | mouse, lung LXFA sample B PDX |  | 30 mg/kg twice weekly | day 18 | 52.3 mm3 and 225 mm3 and 59.7 mm3 and 42.7 mm3 and 18.1 mm3 and 137 mm3 and 107 mm3 and 49 mm3
HPAC xenograft | mouse |  | 30 mg/kg once weekly | day 11 | 322 mm3 and 434 mm3 and 312 mm3 and 337 mm3 and 292 mm3

Study 3
SMILES: Cc1ccc(O)c(C)c1-c1cnc2[nH]c(-c3cnc(N4CCC(CN5CCN(c6ccc(NC7CCC(=O)NC7=O)cc6F)CC5)CC4)nc3)cc2c1C#N (stereo not shown)
Target: Membrane-associated tyrosine- and threonine-specific cdc2-inhibitory kinase (PKMYT1, Homo sapiens, UniProt Q99640)
Sequence of UniProt Q99640 (whole entry, looked up): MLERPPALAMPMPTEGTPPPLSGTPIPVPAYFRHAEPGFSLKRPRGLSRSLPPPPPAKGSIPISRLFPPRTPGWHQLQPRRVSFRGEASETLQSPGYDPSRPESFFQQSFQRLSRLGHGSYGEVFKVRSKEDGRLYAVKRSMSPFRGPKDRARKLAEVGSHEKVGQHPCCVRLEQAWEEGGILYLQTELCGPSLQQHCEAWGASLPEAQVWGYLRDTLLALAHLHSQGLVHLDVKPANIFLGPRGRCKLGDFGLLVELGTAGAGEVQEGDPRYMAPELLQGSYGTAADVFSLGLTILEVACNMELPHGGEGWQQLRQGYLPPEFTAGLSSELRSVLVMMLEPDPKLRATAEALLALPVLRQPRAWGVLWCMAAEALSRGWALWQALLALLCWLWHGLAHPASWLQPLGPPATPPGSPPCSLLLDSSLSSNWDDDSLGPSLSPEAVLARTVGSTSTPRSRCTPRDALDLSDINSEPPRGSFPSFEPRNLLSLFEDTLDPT
observed | action | technique | tested at | inhibition [%]
 |  |  | 0.3333 µM | 99.2
cell-free assay | inhibitor | TR-FRET | 37.04 nM | 88
 |  |  | 0.00137 µM | 16
cell-free assay | inhibitor | TR-FRET | 460 pM | 0.78
 |  |  | 1 µM | 101
 |  |  | 5.1e-05 µM | 0.608
cell-free assay | inhibitor | TR-FRET | 1.37 nM | 17.2
 |  |  | 0.000152 µM | -3.74

Other studies, line by line
SMILES | observed | host | medium | measurement | value
Cn1cc(-c2cccc(CN3CCC4(CC3)COc3c4ccc4c3CN([C@H]3CCC(=O)NC3=O)C4=O)c2)cn1 | metabolic stability | monkey | liver microsomes | scaled CLint | 55.7 mL/min/kg

Some of these lines once more (study 1):
SMILES | inhibition
Cc1ccc2c(c1)OC(O)(C(=O)O)C(=O)N2Cc1ccccc1 (stereo not shown) | 40.9% and 41.2% and 38.8%
O=C(O)C1(O)Oc2cc(Br)ccc2N(Cc2ccccc2)C1=O (stereo not shown) | 100%
